Literature values as cited in several papers.
Protocols differ between the studies behind these lines. Several values in a cell are separate wells, animals, samples, runs or records.
Sequence of UniProt P42336 (whole entry, unmodified, looked up): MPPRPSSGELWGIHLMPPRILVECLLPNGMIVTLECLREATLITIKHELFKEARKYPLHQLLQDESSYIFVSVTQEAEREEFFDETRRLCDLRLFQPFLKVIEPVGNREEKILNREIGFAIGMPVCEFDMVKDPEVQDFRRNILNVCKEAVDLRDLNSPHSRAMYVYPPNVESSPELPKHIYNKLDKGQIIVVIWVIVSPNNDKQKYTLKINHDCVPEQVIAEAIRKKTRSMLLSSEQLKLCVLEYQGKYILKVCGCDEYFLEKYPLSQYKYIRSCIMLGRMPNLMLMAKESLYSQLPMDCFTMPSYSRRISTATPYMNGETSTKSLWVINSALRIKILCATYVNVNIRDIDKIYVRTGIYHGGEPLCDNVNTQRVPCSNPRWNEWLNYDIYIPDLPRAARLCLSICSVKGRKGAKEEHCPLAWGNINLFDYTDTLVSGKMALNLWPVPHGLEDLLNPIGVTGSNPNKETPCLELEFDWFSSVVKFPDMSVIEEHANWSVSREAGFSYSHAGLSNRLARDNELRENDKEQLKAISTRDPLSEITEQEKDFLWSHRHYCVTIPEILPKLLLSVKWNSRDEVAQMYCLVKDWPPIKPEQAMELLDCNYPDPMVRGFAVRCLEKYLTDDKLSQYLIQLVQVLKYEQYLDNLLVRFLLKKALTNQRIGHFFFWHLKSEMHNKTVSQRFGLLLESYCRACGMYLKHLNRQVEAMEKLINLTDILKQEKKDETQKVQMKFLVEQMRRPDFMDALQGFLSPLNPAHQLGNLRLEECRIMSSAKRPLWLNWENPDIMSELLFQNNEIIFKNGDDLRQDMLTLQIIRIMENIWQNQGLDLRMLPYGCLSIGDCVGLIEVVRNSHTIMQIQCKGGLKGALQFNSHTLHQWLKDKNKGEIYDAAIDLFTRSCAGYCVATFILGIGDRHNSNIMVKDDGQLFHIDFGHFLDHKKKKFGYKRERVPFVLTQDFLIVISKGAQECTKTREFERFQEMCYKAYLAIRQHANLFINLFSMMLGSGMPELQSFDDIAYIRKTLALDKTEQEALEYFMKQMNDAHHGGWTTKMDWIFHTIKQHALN

Cc1ccncc1NC(=O)C(C)(C)c1cccc(Cl)c1  inhibition (main protease (Mpro); 20 µM): 49.3%
COC(=O)[C@@H]1C[C@H](OC(C)=O)C(=O)[C@H]2[C@@]1(C)CC[C@H]1C(=O)O[C@H](c3ccoc3)C[C@]21C  Ki (kappa opioid receptor): 31.6 nM and 33 nM and 17.5 nM and 23.5 nM
O=C(Nc1nncn1C1CC1)[C@@H]1CCOc2ccccc21  inhibition (main protease (Mpro); 50 µM): 2.15%
CC(C)(O/N=C(\C(=O)N[C@@H]1C(=O)N2C(C(=O)[O-])=C(C[N+]3(CCNC(=O)c4ccc(O)c(O)c4Cl)CCCC3)CS[C@H]12)c1csc(N)n1)C(=O)O  kcat (VIM-1; hydrolysis by enzyme, substrate): 1.17 s⁻¹
CC(C)C[C@@H]1NC(=O)[C@H](Cc2cn(Cc3ccc(Br)cc3)c3ccccc23)N(C)C(=O)[C@H](CC(C)C)NC(=O)[C@H](CC(C)C)N(C)C(=O)[C@H](CC(C)C)NC(=O)[C@@H](CCC#N)OC(=O)[C@H](C)N(C)C1=O  IC50 (Sec61; inhibitor): 20 to 500 nM
Nc1ncc(-c2nc(N3CCOCC3)nc(N3CCOCC3)n2)c(C(F)F)n1  remaining binding (PIK3CA (Homo sapiens, UniProt P42336, I800L); KinomeScan competition binding; 10 µM): 0.05%
COc1ccc2c(c1)c(CC(=O)O)c(C)n2C(=O)c1ccc(Cl)cc1  IC50 (prostaglandin E synthase 2 (PTGES2); inhibitor): 750 nM
CCCCCOc1ccc(-c2ccc(-c3ccc(C(=O)N[C@H]4C[C@@H](O)[C@@H](O)NC(=O)[C@@H]5[C@@H](O)[C@@H](C)CN5C(=O)[C@H]([C@@H](C)O)NC(=O)[C@H]([C@H](O)[C@@H](O)c5ccc(O)cc5)NC(=O)[C@@H]5C[C@@H](O)CN5C(=O)[C@H]([C@@H](C)O)NC4=O)cc3)cc2)cc1  mean clearance (haematological patients; dose not given): 1.49 L/h
Cc1ccncc1NC(=O)Cc1cc(Cl)cc(NS(N)(=O)=O)c1  inhibition (main protease (Mpro); 50 µM): 87.9%
CC1(C)C(C(=O)c2cn(CCN3CCOCC3)c3ccccc23)C1(C)C  EC50 (cannabinoid receptor CB2; agonist): 0.7 nM
CNC(=O)[C@H](Cc1c[nH]c2ccccc12)NC(=O)[C@@H](CC(=O)NO)CC(C)C  IC50 (ADAM9; inhibitor): 1 nM
CC12C(=O)OC(=O)C1(C)C1CCC2O1 (stereo not drawn)  IC50 (protein phosphatase 6 catalytic subunit; enzyme activity, inhibitor): 200 to 8000 nM

Excerpt of the above:
O=C(Nc1nncn1C1CC1)[C@@H]1CCOc2ccccc21  inhibition (main protease (Mpro); 50 µM): 2.15%
CC1(C)C(C(=O)c2cn(CCN3CCOCC3)c3ccccc23)C1(C)C  EC50 (cannabinoid receptor CB2; agonist): 0.7 nM
